{"data": "Measured values gathered from unrelated publications", "note": "Lines come from different studies, so protocols differ.", "UniProt O60674, sequence (whole entry, looked up)": "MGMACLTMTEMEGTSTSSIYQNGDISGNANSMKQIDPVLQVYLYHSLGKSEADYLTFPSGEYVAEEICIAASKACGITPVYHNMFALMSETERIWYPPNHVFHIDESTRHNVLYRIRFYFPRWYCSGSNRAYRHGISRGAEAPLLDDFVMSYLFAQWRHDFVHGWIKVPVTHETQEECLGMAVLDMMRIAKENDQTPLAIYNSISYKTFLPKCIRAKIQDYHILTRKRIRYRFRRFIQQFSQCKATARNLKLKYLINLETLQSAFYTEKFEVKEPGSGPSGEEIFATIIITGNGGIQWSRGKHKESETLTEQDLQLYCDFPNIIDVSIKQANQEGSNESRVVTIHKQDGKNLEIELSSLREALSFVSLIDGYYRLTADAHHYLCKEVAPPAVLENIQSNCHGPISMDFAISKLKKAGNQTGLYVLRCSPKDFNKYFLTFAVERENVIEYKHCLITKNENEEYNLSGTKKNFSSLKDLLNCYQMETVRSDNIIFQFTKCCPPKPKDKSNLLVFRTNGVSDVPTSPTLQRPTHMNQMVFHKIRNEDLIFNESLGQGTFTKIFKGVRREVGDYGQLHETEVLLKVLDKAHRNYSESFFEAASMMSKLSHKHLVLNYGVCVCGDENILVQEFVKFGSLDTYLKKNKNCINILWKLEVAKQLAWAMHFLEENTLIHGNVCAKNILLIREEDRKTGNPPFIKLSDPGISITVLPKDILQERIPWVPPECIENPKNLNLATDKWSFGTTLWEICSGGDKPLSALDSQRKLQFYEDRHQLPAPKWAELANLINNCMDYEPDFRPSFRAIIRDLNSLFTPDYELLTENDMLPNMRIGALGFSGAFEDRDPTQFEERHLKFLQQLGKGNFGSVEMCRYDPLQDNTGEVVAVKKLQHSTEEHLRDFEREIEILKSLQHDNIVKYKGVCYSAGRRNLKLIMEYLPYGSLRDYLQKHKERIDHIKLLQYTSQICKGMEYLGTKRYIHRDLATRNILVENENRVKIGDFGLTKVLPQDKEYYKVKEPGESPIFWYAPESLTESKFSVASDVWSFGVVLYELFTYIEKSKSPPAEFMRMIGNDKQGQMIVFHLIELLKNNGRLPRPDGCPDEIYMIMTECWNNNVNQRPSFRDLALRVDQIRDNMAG"}
{"Compound": "CC(=O)O[C@H]1CC[C@@]2(C)C(=CC[C@@H]3[C@@H]2CC[C@]2(C)C(=O)CC[C@@H]32)C1", "tested on": "THP-1", "assay": "pyroptotic LDH release", "conditions": "2 µM, 40 min, together with: LPS then nigericin", "endpoint": "inhibition", "result": "4.92%"}
{"Compound": "C[C@H]1CN(c2n[nH]c3nc(N[C@H]4CC[C@H](NS(=O)(=O)CCC(F)(F)F)CC4)ncc23)CCO1", "tested on": "Tyrosine-protein kinase JAK2 (JAK2, Homo sapiens, UniProt O60674)", "assay": "inhibitor, Kinobeads competition profiling", "conditions": "0.16 µM", "how to read": "relative to: vehicle", "endpoint": "relative abundance", "result": 1.13}
{"Compound": "CCCCCc1cc(O)c2c(c1)OC(C)(C)[C@@H]1CCC(C)=C[C@@H]21", "tested on": "capacitated human sperm", "assay": "CASA", "conditions": "10 µM, 1 h", "endpoint": "Total motility", "result": "decreased"}
{"Compound": "C[C@]12COC(=O)C[C@@H]1CC[C@@H]1[C@@H]2CC[C@@]2(C)[C@H]1CC[C@]2(C)O", "tested on": "THP-1", "assay": "pyroptotic LDH release", "conditions": "2 µM, 40 min, together with: LPS then nigericin", "endpoint": "inhibition", "result": "-0.922%"}
{"Compound": "C#CC[C@H](c1nc2cc(Cl)ccc2c(=O)n1Nc1ccccc1)N(CCCN)C(=O)c1cccc(Cl)c1F", "tested on": "human coronavirus OC43", "assay": "virus-induced cell killing", "test system": "MRC-5", "conditions": "screen", "endpoint": "maximum inhibition", "result": "2.09%"}
{"Compound": "CN1C(=O)C(C2C3=C(CC(C)(C)CC3=O)Oc3c(O)cccc32)C(=O)N(C)C1=O (stereo not shown)", "tested on": "3T3-L1 during adipogenesis", "assay": "Oil Red O", "conditions": "IC20", "how to read": "relative to: untreated", "endpoint": "lipid content reduction", "result": "~80%"}
{"Compound": "CC[C@H](C)[C@@H]1NC(=O)[C@H](CO)NC(=O)[C@@H]2CCCN2C(=O)[C@@H](NC(=O)CN)CSSC[C@@H]2NC(=O)CNC(=O)[C@H](C)NC(=O)[C@H](CC(C)C)NC(=O)[C@@H]3CSSC[C@@H](C(=O)NCC(=O)O)NC(=O)[C@H](Cc4ccccc4)NC(=O)CNC(=O)[C@H](CC(N)=O)NC(=O)[C@@H]4CCCN4C(=O)CNC(=O)[C@H](CSSC[C@H](NC(=O)[C@H](CCCNC(=N)N)NC(=O)[C@H](Cc4c[nH]cn4)NC(=O)[C@H](CCCNC(=N)N)NC(=O)[C@H](CCCCN)NC(=O)[C@H](C(C)C)NC(=O)[C@H](CCCNC(=N)N)NC(=O)[C@H](CC(N)=O)NC1=O)C(=O)N[C@@H](CCCCN)C(=O)N[C@@H](CCC(N)=O)C(=O)N[C@@H](CC(=O)O)C(=O)N[C@@H](CO)C(=O)N[C@@H](CC(=O)O)C(=O)N3)NC(=O)[C@H](C(C)C)NC2=O", "tested on": "HEK293-TB", "assay": "Wnt signaling", "conditions": "together with: Wnt3a transfection", "endpoint": "IC50", "result": "> 100 µM"}
{"Compound": "C[C@]12CC[C@H]3[C@@H](CC=C4CC(O)CC[C@@]43CO)[C@@H]1CCC2O (stereo partly shown)", "tested on": "LX-2 hepatic stellate cells", "assay": "gene expression, item: ACTA2, COL1A1", "conditions": "100 µM, together with: TGFβ 1 ng/mL", "endpoint": "fibrotic marker upregulation", "result": "inhibited"}
{"Compound": "COc1cc2c(Nc3ccc(Br)cc3F)ncnc2cc1OCC1CCN(C)CC1", "tested on": "human coronavirus OC43", "assay": "virus-induced cell killing", "test system": "MRC-5", "conditions": "maximum over 10 doses", "endpoint": "maximum inhibition", "result": "0%"}
{"Compound": "C[C@]12CCC(=O)C=C1CC[C@@H]1[C@@H]2CC[C@@]2(C)[C@H]1CC[C@]2(C)O", "tested on": "THP-1", "assay": "pyroptotic LDH release", "conditions": "2 µM, 40 min, together with: LPS then nigericin", "endpoint": "inhibition", "result": "-8.67%"}
{"Compound": "O=C1NC(=O)C(C2C3=C(CCCC3=O)Oc3ccc([N+](=O)[O-])cc32)C(=O)N1 (stereo not shown)", "tested on": "3T3-L1 during adipogenesis", "assay": "Oil Red O", "conditions": "IC20", "how to read": "relative to: untreated", "endpoint": "lipid content reduction", "result": "~80%"}
{"Compound": "CCCN(CCC)C(=O)Cc1c(-c2ccc(Cl)cc2)nc2ccc(Cl)cn12", "tested on": "HEK293T ATF4-FLuc reporter", "assay": "ATF4 reporter gene, activator, luciferase reporter", "endpoint": "EC50", "result": "> 9.96 µM"}
{"Compound": "COc1ccc(-n2nc(C(C)=O)s/c2=N\\N=C(/C)c2ccc(NC(C)=O)cc2)cc1", "tested on": "HepG2", "conditions": "0.312 µM", "endpoint": "toxicity", "result": "86%"}
{"note": "Excerpt of the above:"}
{"Compound": "CCCCCc1cc(O)c2c(c1)OC(C)(C)[C@@H]1CCC(C)=C[C@@H]21", "tested on": "capacitated human sperm", "assay": "CASA", "conditions": "10 µM, 1 h", "endpoint": "Total motility", "result": "decreased"}
